Assay results from different studies.
Lines come from different studies, so protocols differ. ± gives the spread as reported.
Cell line: WI-38

CCN1CCC2(CC1)C/C(=N\NC(=O)Nc1ccccc1)c1ccccc1O2
IC50 (cell growth or viability): 65.6 µM

O=C(/C=C/c1ccccc1)OCCCC[P+](c1ccccc1)(c1ccccc1)c1ccccc1
IC50 (cell growth or viability, SRB; 48 h): 66.3 µM

O=C(Cn1cc(C2CC(c3ccccc3)=NN2)nn1)Nc1nc(-c2ccccc2)cs1 (centres unmarked)
IC50 (cell growth or viability, MTT; 72 h): 0.205 µM

N=C(N)Nc1nc2ccccc2s1
IC50 (cell growth or viability, MTT; 24 h): > 500 µM

O=C(/C=C/c1ccc(O)c(O)c1)OCCCC[P+](c1ccccc1)(c1ccccc1)c1ccccc1
IC50 (cell growth or viability, SRB; 48 h): 70.6 µM

Cc1c(C(=O)NNC(=S)Nc2ccc(Cl)cc2)nnn1Cc1nc2ccccc2[nH]1
IC50 (cell viability): 37.2 ± 2.4 µM

O=C(/C=C/c1ccc(O)cc1)OCCCC[P+](c1ccccc1)(c1ccccc1)c1ccccc1
IC50 (cell growth or viability, SRB; 48 h): 113 µM

Cc1nn(-c2ccc(S(=O)(=O)N[C@H](CO)CC(C)C)cc2)c2nn3nnnc3nc12
IC50 (cell growth or viability, MTT; 72 h): 1.21 µM

COc1cc(/C=C/C(=O)OCCCC[P+](c2ccccc2)(c2ccccc2)c2ccccc2)ccc1O
IC50 (cell growth or viability, SRB; 24 h): 98.6 µM

N=C(N)Nc1nc2ccccc2o1
IC50 (cell growth or viability, MTT; 24 h): > 500 µM

O=C(Cn1cc(/C=C/C(=O)c2ccccc2)nn1)Nc1nc(-c2ccccc2)cs1
IC50 (cell growth or viability, MTT; 72 h): 1.61 µM

Cc1c(-c2cccc(C3=NCCN3)c2)oc(-c2cccc(C3=NCCN3)c2)c1C
IC50 (cell growth or viability, SRB): 1.3 µM

CCN1CCC2(CC1)C/C(=N\NC(=O)Nc1ccc(OC)cc1)c1ccccc1O2
IC50 (cell growth or viability): 83.5 µM

CSC(=S)N/N=C(\C)c1ccc(S(=O)(=O)N2CCC(C)CC2)cc1
IC50 (cell growth or viability): 86.3 µM

CCN1CCC2(CC1)C/C(=N\NC(=O)Nc1ccc([N+](=O)[O-])cc1)c1ccccc1O2
IC50 (cell growth or viability): 57.5 µM

Cc1cc(N2CCN(C(=O)CN3CCN(c4ccccc4)CC3)CC2)n2ncnc2n1
IC50 (cell growth or viability): 43.9 µM

CCN1CCC2(CC1)C/C(=N\NC(=O)Nc1ccc(C)cc1)c1ccccc1O2
IC50 (cell growth or viability): 100 µM

Cc1cc(N2CCN(C(=O)CN3CCCCC3)CC2)n2ncnc2n1
IC50 (cell growth or viability): 36.5 µM

CCN1CCC2(CC1)C/C(=N\N=C\c1ccc(O)cc1)c1ccccc1O2
IC50 (cell growth or viability): 47.5 µM

CC(=NN=c1sc(C(=O)c2ccccc2)nn1-c1ccccc1)c1ccc(S(=O)(=O)N2CCC(C)CC2)cc1
IC50 (cell growth or viability): 69.7 µM

For quick reference, copied from above:
Cc1c(-c2cccc(C3=NCCN3)c2)oc(-c2cccc(C3=NCCN3)c2)c1C
IC50 (cell growth or viability, SRB): 1.3 µM
